# Measurements from different studies.
# A part holds a random share of what one study measured.

# Set 1 — method: universal PBM; molecule type: double-stranded DNA, one strand shown; sample: in vitro; tested at: not given; reading: higher = stronger binding
# Target: Sal-like protein 4, full length isoform B (SALL4, Homo sapiens, UniProt Q9UJQ4-2, residues 1-616)
# Notes: 8-mer, flanks averaged, mean of replicates
# Residues (chain): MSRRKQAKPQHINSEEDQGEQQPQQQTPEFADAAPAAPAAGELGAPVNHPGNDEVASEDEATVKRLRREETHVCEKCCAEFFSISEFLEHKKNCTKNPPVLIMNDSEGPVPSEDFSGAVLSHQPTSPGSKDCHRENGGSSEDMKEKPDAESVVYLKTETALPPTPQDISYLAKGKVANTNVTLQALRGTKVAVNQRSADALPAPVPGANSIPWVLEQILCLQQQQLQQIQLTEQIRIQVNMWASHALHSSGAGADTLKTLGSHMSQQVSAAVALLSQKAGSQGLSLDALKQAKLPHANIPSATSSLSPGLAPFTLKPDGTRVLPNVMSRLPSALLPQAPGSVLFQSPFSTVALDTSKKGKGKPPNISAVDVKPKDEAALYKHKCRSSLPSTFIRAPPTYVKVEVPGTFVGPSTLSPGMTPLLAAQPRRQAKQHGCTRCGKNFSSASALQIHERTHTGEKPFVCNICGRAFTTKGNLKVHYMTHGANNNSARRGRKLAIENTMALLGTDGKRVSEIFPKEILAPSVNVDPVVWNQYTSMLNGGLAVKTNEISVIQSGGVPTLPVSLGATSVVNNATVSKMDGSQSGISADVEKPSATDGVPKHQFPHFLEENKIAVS
Sequence,E-score
CCCCCGCA,-0.211
ATCCAGTA,0.0309
ATCATCGA,0.0868
ACCGTAAT,0.159
CTGGGGCC,-0.373
GCGCCAAA,-0.0418
AGCCAGGC,-0.302
CGTTAAAG,-0.0416
CACCCAGC,-0.332
TACACGCA,-0.0357
GGTGGTCA,-0.187
GTATTTCA,0.283
CTCGGAAG,-0.181
CAGTCGGG,-0.227
AGAATCAT,0.295
CATGGTCC,-0.183
CTGGACGC,-0.226
GTTTGCTA,0.00062
ACCTTGGC,-0.215
CCGTTCTA,0.0503
GTCTGAAA,-0.0828
AGTTAAGC,0.0388

# Set 2 — method: RNA Bind-n-Seq; molecule type: RNA; sample: in vitro; tested at: 1 µM; notes: whole 134-nt RNA, ends assumed; with: 150 mM KCl; relative to: input library; reading: higher = stronger binding
# Target: Ras GTPase-activating protein-binding protein 1, C-terminal RGG region (G3BP1, Homo sapiens, UniProt Q13283)
# Sequence of UniProt Q13283 (whole entry, looked up): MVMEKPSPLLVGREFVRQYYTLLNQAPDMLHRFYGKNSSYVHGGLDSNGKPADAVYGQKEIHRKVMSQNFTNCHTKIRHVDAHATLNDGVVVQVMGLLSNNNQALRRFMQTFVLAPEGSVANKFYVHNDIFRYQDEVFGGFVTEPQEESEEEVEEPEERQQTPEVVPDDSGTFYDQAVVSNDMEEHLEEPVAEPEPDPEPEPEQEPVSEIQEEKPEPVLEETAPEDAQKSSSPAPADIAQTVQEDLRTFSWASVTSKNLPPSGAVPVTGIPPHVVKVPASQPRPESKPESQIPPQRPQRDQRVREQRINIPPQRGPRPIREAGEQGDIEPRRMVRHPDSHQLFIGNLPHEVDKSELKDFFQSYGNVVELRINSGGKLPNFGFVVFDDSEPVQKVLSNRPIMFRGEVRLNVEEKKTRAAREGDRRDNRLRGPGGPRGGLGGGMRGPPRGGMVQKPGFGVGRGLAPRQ
# Constant ends, left off below: GGGAGUUCUACAGUCCGACGAUC … UGGAAUUCUCGGGUGUCAAGG
Sequence,log2 enrichment
UCAUGGCUAUCAUUAGCCACAGGUACUGCUGAUUAUAAGGCCAGUAAAAUUUUAGUACCUGGAGGUUUGACUCUAAUUUUUGCACUGAUG,-1.89
CAAGUCCUGUGCUACACAUCGUAUGUACCGAAUCGGGAAAGGAAAGGGGAAAGGGAAAGUAUUAUGUUACGCCGUUCGGAUCUGCACUUC,-0.239
UGGCCCUGGUGGCAUGCGGGGAGGAAGAGGUGGCCUCAUGGAUCGUGGUGGUCCCGGUGGAAUGUUCAGAGGUGGCCGUGGUGGAGACUG,3.22
AGUCCUGUGCUACACAUCGUAUGUACCGAAUCGGUUUUGGGGUUUUGGGGUUUUGGGGAAAGUAUUAUGUUACGCCGUUCGGAUCUGCAC,-0.534
CCUCAAGUCCUGUGCUACACAUCGUAUGUACCGAAUCGGAAGGGAAGGAAGGAAAGUAUUAUGUUACGCCGUUCGGAUCUGCACUUCCAG,-1.13
UGGCCCUGGUGGCAUGCGGGGAGGAAGGGGUGGCCUCAUGGAUCGUGGUGGUCCCGGUGGAAUGUUCAGAGGUGGCCGUGGUGGAGACAG,1.93
GUCCUGUGCUACACAUCGUAUGUACCGAAUCAAAUUUUUAAAUUUUUUUAAACCCAAAAAAGUAUUAUGUUACGCCGUUCGGAUCUGCAC,-1.21
ACCAUGCAGGUGGGCAUCUUUGGGAAGUGGGGCAAGGGGGCGAUAGGGAGGGGGGUAACACUUUGGGAACAGGUGGUCCCAGGUCGUUUC,2.02
GUCCUGUGCUACACAUCGUAUGUACCGAAUCGGAAAAAAAGGAAAAAGGUUUUUUUGGAAAGUAUUAUGUUACGCCGUUCGGAUCUGCAC,-1.85
UCCUCAAGUCCUGUGCUACACAUCGUAUGUACCGAAUCGGGGUGGGUGGUGGAAAGUAUUAUGUUACGCCGUUCGGAUCUGCACUUCCAG,0.313

# Set 3 — method: protein binding microarray; molecule type: double-stranded DNA, one strand shown; sample: in vitro; tested at: not given; relative to: not given; reading: higher = stronger binding
# Target: Histone acetyltransferase KAT6A, winged helix 1, GST fusion (KAT6A, Homo sapiens, UniProt Q92794, residues 1-85)
# Notes: 8-mer, flanks averaged, mean of 2 arrays, mostly near background
# Target sequence (chain): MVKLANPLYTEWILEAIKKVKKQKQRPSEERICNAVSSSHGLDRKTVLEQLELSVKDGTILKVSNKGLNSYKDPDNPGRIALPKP
Sequence,E-score
CACACTCA,-0.249
CATAATGA,-0.183
AGCAAGCT,-0.283
CCAGTACG,-0.0617
GCGATCTA,0.0988
AGTGCAAC,-0.143
TGGCTACA,-0.242
AATTTCGG,0.0734
ATTAGTAA,-0.0869
AAAACTGG,-0.144
GTCTGAGA,-0.108
GTACTTGA,-0.0603
AACCTTTG,-0.0779
GTGCTGAA,-0.202
ACTCGCCA,-0.163
GAAACTTC,-0.179
CCTGATGA,-0.143
CCAACTTA,-0.194
CCTTTAAA,-0.0686
GCTTGAGA,-0.209

# Set 4 — method: RNA Bind-n-Seq; molecule type: RNA; sample: in vitro; tested at: 365 nM; relative to: no-protein control; reading: higher = stronger binding
# Target: RNA binding protein fox-1 homolog 2, RRM domain, GST-SBP tag (RBFOX2, Homo sapiens, UniProt O43251-10, residues 100-194)
# Notes: natural RNA segment, single round, ends assumed
# Constant ends, left off below: GGGAGUUCUACAGUCCGACGAUC … UGGAAUUCUCGGGUGCCAA
# Target sequence (chain): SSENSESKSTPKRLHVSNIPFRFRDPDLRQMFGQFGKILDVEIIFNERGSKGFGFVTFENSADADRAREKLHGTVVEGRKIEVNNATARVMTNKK
Sequence,RBNS enrichment (R)
CCUUCGUCAUCUGUGGAUCCAUCCAGAACAGCGGUAUCUGAAGCCCAGGCCAUACUCCCUGCCUCCUUUCUUCUGCCUACCAGAGGCUCCAGAGUUGAGCUUGUCCUUAU,0.489
UGCUGAGGCCUCUACCAGUUCACUCUCUCCCUUGGAAGUGGAAUUCUACCCACCUAAACCCCCCAAAAAAGACAAAACGAAAAGAAGCCACUUCAUCUUAUGUGCCGCUG,0.532
GCUUCAGUAGUAGCUAAGCCAUUAAUACAGUUUGCAUCAAUUUCCCCAUUUAUUUAUAAUCAGCCUUUCUUUUAGUCCUAGUGCCUGAAUCAAUGAGUGAGAAUACUAGU,0.517
CGCCAGUGCAUCCAGUACAGCGCCUGCCAUCUUGUGCAAUGUGCAACCCUGGGAUGUGAGCCCUGCCAUGUGCUGGUAACAUGGCUAGGCAUGUUGGGCUUCCCAAACCA,1.78
GUUCCUUUGUAUACAAAUUUCAGCAGCUAGGAUAUGUCACCCUUCAGUACUACAAAGUACAGAAAUUCCUAGAAUAUAAUCAUUCUCACAGAAUAGAUACCAAGAAAAAG,0.523
GGAAUCCUACAUGCCAUCUUCAGCCUGGACUCAAUUACUAAACUCGGAUUUGUCUGCAAGACUUUCUCCACGUGCCCUUGACAUUGGAAUCACUUGUGGGGCCUCCUAGG,0.339
GACCCCUCUGAGUGGUUGGAGGCAGUGCCCCAGUGCCCAGAAAUCCCACCAUUAGUGAUUGUUUUUUAUGAGAAAGAGGCGUGGAGAAGUAUUGGGGCAAUGUGUCAGGG,0.807
UUGUUUUAGCAACUGAAAAUUGUACUUGGUCACUUUUGUGCUUGAGGAGGCCCAUUUUCUGCCUGGCAGGGGGCAGGUCUGUGCCCUCCCGCUGACUCCUGCUGUGUCCU,0.601
ACGUGUUGUGUUUUCUGAUGUUGACUUGAGUUCCAUUUAGUAGCAUCUCUUCCUUCCAUGUCUUGAUGUUAUGCAGGAAGUACAGACGUACUUUAAAUUUUUGUUAUGAA,2.13
UUCUGGGUUGAAUUUUUUAAAAAUCAGGUACCACUUGAUUUCAUAUGGGAAAUUGAAGCAGGAAAUAUUGAGGGCUUCUUGAUCACAGAAAACUCAGAAGAGAUAGUAAU,0.323
GUCCCAAGGUGAGCUCCGUGGACAGCAAAGCGCAUUUCUUCCAGUUGGCAUGUUGUCGAAGCCAAUGGCAGCUUGACUGAUGUGAGGUGGCUAUUCCACCUGGUUCAAGA,0.896
AUGGACAUUAGGUAUCCCAACAUAACCAUCUGGAGUGUGUCCAGUUUGUUCUUCAUAGGACCAAUUUUUAUUUGCAGCUUGAGUUUUUAUAUGAAGUUGCAUUAUUGUGG,0.656

# Repeated from above (set 1):
Sequence,E-score
CTCGGAAG,-0.181
CAGTCGGG,-0.227
ATCATCGA,0.0868
CCCCCGCA,-0.211
CATGGTCC,-0.183
